Assay results gathered from unrelated publications.
Each line is one published result; not all experiments were run side by side. Numbers after ± are the reported error.
JAK2: Tyrosine-protein kinase JAK2 (JAK2, Homo sapiens, UniProt O60674)
Chain of UniProt O60674 (whole entry, looked up): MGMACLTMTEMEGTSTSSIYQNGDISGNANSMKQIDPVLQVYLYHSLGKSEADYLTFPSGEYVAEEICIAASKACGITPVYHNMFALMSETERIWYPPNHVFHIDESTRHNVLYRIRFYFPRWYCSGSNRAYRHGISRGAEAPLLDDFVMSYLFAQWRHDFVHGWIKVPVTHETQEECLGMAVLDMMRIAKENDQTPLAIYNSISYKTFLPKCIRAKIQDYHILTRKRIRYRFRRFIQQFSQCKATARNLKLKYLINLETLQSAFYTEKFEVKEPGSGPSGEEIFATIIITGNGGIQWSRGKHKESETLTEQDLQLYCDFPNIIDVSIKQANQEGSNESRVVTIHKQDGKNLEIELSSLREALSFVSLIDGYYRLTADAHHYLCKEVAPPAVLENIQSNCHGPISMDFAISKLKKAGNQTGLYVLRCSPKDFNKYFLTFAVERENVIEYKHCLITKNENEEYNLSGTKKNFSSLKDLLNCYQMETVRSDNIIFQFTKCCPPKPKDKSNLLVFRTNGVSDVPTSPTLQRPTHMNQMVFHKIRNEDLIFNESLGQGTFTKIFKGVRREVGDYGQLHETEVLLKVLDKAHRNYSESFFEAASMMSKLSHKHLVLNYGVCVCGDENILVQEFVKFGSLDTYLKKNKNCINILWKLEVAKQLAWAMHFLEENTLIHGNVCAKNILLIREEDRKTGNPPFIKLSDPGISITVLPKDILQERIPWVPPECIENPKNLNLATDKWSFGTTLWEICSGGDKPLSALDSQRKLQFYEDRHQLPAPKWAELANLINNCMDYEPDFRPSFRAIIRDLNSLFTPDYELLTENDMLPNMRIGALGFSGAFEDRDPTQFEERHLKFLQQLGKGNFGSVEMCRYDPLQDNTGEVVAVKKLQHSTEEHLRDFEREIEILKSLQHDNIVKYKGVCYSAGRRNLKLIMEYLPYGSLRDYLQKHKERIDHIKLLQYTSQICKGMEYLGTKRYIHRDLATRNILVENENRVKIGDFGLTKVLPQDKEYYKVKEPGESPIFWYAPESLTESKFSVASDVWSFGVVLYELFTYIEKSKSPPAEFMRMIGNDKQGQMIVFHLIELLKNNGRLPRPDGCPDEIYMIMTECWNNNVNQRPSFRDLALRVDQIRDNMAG
MPO: Myeloperoxidase (MPO, Homo sapiens, UniProt P05164)
Chain of UniProt P05164 (whole entry, looked up): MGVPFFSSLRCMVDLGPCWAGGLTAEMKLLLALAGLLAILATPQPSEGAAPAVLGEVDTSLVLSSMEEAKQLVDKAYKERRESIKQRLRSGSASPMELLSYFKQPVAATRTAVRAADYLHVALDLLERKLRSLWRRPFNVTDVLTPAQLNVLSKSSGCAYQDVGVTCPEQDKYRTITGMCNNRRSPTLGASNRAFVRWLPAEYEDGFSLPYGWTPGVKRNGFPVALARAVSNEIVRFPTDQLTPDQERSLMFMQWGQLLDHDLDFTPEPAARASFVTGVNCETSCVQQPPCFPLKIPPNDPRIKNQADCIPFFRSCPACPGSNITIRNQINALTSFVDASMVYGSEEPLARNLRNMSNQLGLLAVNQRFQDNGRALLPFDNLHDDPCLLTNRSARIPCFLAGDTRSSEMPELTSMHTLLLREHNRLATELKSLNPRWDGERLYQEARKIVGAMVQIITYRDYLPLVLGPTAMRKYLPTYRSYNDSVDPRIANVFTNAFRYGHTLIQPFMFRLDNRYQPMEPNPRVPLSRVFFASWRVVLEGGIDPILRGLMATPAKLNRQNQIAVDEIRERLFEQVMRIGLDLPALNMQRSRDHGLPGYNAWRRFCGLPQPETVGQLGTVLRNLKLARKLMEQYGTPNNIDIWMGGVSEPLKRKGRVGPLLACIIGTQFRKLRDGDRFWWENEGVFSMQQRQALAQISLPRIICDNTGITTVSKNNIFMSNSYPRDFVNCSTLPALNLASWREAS
Chain of UniProt P45983 (whole entry, looked up): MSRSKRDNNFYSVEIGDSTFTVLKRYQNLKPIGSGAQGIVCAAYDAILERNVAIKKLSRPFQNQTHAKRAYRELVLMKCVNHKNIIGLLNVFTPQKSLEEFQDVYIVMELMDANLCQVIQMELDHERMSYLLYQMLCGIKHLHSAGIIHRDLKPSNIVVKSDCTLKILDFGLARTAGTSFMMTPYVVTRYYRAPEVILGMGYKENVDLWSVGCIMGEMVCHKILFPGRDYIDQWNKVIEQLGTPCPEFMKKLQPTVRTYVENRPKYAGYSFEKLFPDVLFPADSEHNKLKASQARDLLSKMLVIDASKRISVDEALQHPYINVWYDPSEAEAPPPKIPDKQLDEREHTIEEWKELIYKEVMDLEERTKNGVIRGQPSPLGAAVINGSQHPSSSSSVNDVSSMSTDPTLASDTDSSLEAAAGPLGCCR
Chain of UniProt Q9Y2U5 (whole entry, looked up): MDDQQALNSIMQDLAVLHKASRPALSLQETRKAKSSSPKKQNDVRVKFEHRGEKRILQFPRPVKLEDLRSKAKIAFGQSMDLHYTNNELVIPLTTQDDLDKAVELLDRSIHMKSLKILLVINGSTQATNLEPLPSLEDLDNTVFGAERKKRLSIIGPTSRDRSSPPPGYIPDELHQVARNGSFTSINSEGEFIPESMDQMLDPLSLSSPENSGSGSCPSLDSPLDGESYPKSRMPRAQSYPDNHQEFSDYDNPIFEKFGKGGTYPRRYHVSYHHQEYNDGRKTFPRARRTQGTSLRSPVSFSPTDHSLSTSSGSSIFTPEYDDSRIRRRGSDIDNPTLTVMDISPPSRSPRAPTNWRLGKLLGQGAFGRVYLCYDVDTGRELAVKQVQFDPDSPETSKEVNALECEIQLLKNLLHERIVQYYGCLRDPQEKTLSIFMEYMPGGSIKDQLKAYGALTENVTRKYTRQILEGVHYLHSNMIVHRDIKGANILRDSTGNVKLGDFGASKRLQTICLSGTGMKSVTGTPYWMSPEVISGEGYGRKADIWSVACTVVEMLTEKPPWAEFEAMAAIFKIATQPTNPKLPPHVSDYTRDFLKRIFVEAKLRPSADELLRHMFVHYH
Chain of UniProt P49760 (whole entry, looked up): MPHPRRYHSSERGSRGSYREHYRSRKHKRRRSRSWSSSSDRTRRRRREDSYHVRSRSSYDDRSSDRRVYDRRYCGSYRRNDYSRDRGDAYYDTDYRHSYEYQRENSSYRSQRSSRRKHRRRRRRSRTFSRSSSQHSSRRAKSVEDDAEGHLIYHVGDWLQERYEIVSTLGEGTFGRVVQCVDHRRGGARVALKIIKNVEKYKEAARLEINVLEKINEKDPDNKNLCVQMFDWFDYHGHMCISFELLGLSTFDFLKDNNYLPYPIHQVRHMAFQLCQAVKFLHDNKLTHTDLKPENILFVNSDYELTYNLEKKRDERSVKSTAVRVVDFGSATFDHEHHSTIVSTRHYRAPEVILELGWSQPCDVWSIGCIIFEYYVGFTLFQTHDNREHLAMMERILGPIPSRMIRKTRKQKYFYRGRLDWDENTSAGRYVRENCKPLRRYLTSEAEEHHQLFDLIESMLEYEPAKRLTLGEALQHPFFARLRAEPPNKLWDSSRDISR
Chain of UniProt P51451 (whole entry, looked up): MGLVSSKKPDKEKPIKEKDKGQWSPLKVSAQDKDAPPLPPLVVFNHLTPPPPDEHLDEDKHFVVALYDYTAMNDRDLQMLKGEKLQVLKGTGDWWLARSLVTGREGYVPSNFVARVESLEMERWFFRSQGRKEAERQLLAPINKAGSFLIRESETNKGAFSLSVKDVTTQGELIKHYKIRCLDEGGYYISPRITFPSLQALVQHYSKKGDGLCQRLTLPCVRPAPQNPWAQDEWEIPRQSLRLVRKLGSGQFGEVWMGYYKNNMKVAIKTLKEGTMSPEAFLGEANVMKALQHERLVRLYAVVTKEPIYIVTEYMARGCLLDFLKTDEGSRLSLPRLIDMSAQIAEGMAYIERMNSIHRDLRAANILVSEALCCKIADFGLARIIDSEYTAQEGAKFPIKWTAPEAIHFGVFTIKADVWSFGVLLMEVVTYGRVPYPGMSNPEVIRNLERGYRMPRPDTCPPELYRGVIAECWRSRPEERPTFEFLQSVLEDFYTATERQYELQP
Chain of UniProt P80192 (whole entry, looked up): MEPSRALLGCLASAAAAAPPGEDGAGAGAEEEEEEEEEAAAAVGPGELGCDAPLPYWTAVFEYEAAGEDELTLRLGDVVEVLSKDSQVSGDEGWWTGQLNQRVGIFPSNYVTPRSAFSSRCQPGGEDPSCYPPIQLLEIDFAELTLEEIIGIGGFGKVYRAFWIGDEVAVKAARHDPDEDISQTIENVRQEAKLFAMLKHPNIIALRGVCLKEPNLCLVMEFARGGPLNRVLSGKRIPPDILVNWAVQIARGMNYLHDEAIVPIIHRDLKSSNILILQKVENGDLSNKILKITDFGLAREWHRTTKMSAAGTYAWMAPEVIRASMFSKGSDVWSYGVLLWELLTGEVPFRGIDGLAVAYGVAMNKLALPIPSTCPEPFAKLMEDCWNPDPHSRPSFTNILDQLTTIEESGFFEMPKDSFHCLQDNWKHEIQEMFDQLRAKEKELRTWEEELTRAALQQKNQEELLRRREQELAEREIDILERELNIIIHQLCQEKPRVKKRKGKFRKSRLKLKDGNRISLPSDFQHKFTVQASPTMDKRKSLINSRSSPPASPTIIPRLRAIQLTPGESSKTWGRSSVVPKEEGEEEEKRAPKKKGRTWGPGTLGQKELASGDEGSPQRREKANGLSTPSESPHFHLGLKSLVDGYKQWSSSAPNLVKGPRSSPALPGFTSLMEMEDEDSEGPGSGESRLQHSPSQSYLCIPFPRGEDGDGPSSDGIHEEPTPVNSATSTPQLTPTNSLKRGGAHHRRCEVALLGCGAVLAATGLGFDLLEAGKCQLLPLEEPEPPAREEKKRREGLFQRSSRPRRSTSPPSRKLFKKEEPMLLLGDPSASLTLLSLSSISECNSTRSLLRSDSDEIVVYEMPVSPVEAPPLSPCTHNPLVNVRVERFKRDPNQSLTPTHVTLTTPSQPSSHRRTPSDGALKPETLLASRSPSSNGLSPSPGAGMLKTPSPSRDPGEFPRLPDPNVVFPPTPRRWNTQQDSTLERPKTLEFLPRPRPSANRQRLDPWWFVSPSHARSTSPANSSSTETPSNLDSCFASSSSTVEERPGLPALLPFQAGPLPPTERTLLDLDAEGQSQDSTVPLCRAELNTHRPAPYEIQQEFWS

The remaining activity of CC#CC(=O)N1CCC[C@H]1c1nc(-c2ccc(C(=O)Nc3ccccn3)cc2)c2c(N)nccn12 is reported as 95 ± 1.2% (BLK (Homo sapiens, UniProt P51451); kinase activity, inhibitor, HotSpot radiometric; 100 nM, together with: ATP 10 µM).
The remaining activity of Oc1cccc(-c2nc(N3CCOCC3)c3oc4ncccc4c3n2)c1 is reported as 99% (AMPK; enzyme activity; 10 µM).
For Cc1cc(Nc2cc(N3CCN(C)CC3)nc(Sc3ccc(NC(=O)C4CC4)cc3)n2)[nH]n1, the remaining activity was 91% (MUSK (Homo sapiens, UniProt O15146); kinase activity, KinaseProfiler; 0.03 µM, species human; relative to: control).
The remaining activity of C=CC(=O)N1CCC([C@@H]2CCNc3c(C(N)=O)c(-c4ccc(Oc5ccccc5)cc4)nn32)CC1 is reported as 88 ± 1.3% (PKN3 (Homo sapiens, UniProt Q6P5Z2); kinase activity, inhibitor, HotSpot radiometric; 100 nM, together with: ATP 10 µM).
NC/C(=C\F)COc1cccc(Cn2c(=S)[nH]c(=O)c3[nH]cnc32)c1 has a remaining activity of 69.5% (Peroxidasin homolog (PXDN, Homo sapiens, UniProt Q92626); Amplex UltraRed; 5 µM, mean of replicates; relative to: control).
For Cc1ccc(NC(=O)c2ccc(C)c(C(F)(F)F)c2)cc1C#Cc1nn(C2CCC(O)CC2)c2ncnc(N)c12 (stereo not drawn), the remaining activity was 86% (casein kinase 1, yeast; 10 µM, together with: 10 µM ATP).
C1=C/COCc2cc(ccc2OCCN2CCCC2)Nc2nccc(n2)-c2cccc(c2)COC/1 has a remaining activity of 83% (EGFR (Homo sapiens, UniProt P00533, L861Q); concentration not given; relative to: untreated control).
With COc1cc(Nc2cnc(C#N)c(O[C@H](C)CN(C)C)n2)ncc1-c1cnn(C)c1 the remaining activity was 14% (AMPK; radiometric; 10 µM).
Cc1[nH]c(/C=C2\C(=O)Nc3ccc(F)cc32)c(C)c1C(=O)N[C@H]1CCN(C(=O)N(C)C)C1 has a remaining activity of 111% (JAK2; kinase activity, inhibitor; 0.1 µM; relative to: no-compound control).
For CC(C)C(=O)Nc1n[nH]c2cc(-c3cccc(NS(=O)(=O)C4CC4)c3)ccc12, the remaining activity was 100% (PIP5K1C (Homo sapiens, UniProt O60331); ADP-Glo; 508 pM; relative to: DMSO).
COc1cc(Nc2ncc3c(n2)-c2ccc(Cl)cc2C(c2c(F)cccc2OC)=NC3)ccc1C(=O)O has a remaining activity of 104% (SGK3 (SGKL); inhibitor, biochemical kinase; 1 µM).
C=CC(=O)N1CCC[C@@H](n2nc(-c3ccc(Oc4ccccc4)cc3)c3c(N)ncnc32)C1 gave a remaining activity of 138% (FRK (Homo sapiens, UniProt P42685); 0.1 µM).
For COc1cc(N2CCN(C)CC2)ccc1Nc1nc(N)n(C(=O)NCc2c(Cl)cccc2Cl)n1, the remaining activity was 13% (JAK2; enzyme activity; 10 µM; relative to: control).
With O=C1NC(=O)/C(=C/c2ccc(-c3ccc(F)cc3O)o2)S1 the remaining activity was 16% (CLK2 (Homo sapiens, UniProt P49760); enzyme activity; 10 µM).
For COc1ccc(F)cc1C(=O)NCc1ccc(-c2nn([C@@H](C)C(F)(F)F)c(N)c2C(N)=O)cc1, the remaining activity was 78.7 ± 0.2% (IKBKE (Homo sapiens, UniProt Q14164); kinase activity, inhibitor, HotSpot radiometric; 100 nM, together with: ATP 10 µM).
Cc1cc(NC(=O)c2cccc(NC(=O)/C=C/CN(C)C)c2)ccc1Nc1nccc(-c2cccnc2)n1 has a remaining activity of 0.108 (MAPK8 (Homo sapiens, UniProt P45983); enzyme activity, inhibitor; 44.44 µM, 18 h, unit not given, together with: GSH 10 mM pre-incubation; relative to: vehicle).
C[C@H]1[C@H](OC(=O)CCC(=O)O)O[C@@H]2O[C@@]3(C)CC[C@H]4[C@H](C)CC[C@@H]1[C@@]24OO3 has a remaining activity of 75.3% (Non-structural polyprotein pORF1, helicase domain (Hepatitis E virus genotype 1, UniProt P33424); ATPase activity, inhibitor, colorimetric; 19.5 µM, preincubation 30 min, together with: ATP 100 µM; relative to: untreated).
COc1cc(-c2cncc3c2CN(C)Cc2cc(N4CCNCC4)ccc2-3)cc(OC)c1OC has a remaining activity of 106% (MAP3K9 (Homo sapiens, UniProt P80192); kinase activity; 1 µM, human enzyme, together with: ATP 10 µM; relative to: DMSO control).
COc1ccc(Cl)cc1-c1cc(=O)[nH]c(=S)n1CC(N)=O gave a remaining activity of 23.7% (MPO; 2.5 µM, 0.1 h).
O=C(O)c1ccc(Nc2ncc3c(n2)-c2ccc(Cl)cc2C(c2c(F)cccc2F)=NC3)cc1 has a remaining activity of 110% (human PKBγ(h); kinase activity; 1 µM).
O=C(NC1CCC1)c1ccc2nc(-c3cccc(NS(=O)(=O)NCCN4CCCCC4)c3)cn2c1 gave a remaining activity of 100% (PIP4K2B (Homo sapiens, UniProt P78356); enzyme activity; 10 µM).
CC(C)OCCn1c(=S)[nH]c(=O)c2[nH]ccc21 gave a remaining activity of 17.7% (MPO; chlorination activity; 2.5 µM, 0.1 h, together with: iodide, TMB).
For COc1cc(F)ccc1-c1ncnc(Nc2cccc(C[S@](C)(=N)=O)c2)n1, the remaining activity was 102% (PRKG1 (Homo sapiens, UniProt Q13976); kinase activity; 10 µM, together with: 10 µM ATP).
CNc1ncc2c(/C=C/C(=O)N3CCC(OC)CC3)nn(Cc3cccc(C(F)(F)F)c3)c2n1 gave a remaining activity of 103% (MAP3K2 (Homo sapiens, UniProt Q9Y2U5); kinase activity, inhibitor; 1 µM; relative to: untreated control).

Repeated from above:
The remaining activity of C=CC(=O)N1CCC([C@@H]2CCNc3c(C(N)=O)c(-c4ccc(Oc5ccccc5)cc4)nn32)CC1 is reported as 88 ± 1.3% (PKN3 (Homo sapiens, UniProt Q6P5Z2); kinase activity, inhibitor, HotSpot radiometric; 100 nM, together with: ATP 10 µM).
NC/C(=C\F)COc1cccc(Cn2c(=S)[nH]c(=O)c3[nH]cnc32)c1 has a remaining activity of 69.5% (Peroxidasin homolog (PXDN, Homo sapiens, UniProt Q92626); Amplex UltraRed; 5 µM, mean of replicates; relative to: control).
For Cc1ccc(NC(=O)c2ccc(C)c(C(F)(F)F)c2)cc1C#Cc1nn(C2CCC(O)CC2)c2ncnc(N)c12 (stereo not drawn), the remaining activity was 86% (casein kinase 1, yeast; 10 µM, together with: 10 µM ATP).
